Results collected from several papers.
Protocols differ between the studies behind these lines.
Cell line: SK-OV-3

The IC50 of `O=[N+]([O-])c1ccc(C=NNC(Nc2ccccc2)=[S+][Au-][Cl])o1` is reported as 87.8 µM (cell growth or viability, resazurin).
The IC50 of `Cc1ccc2c(c1C#Cc1ccc(O)cc1)C(c1ccc(O)cc1)(c1ccc(O)cc1)c1cc(O)ccc1-2` is reported as 11.2 µM (cell growth or viability, MTT; 48 h).
The IC50 of `NC(=S)NN=Cc1ccc([N+](=O)[O-])o1` is reported as 26.7 µM (cell growth or viability, resazurin).
`CCCc1cc2cc(-n3nc(CCC)c4c3CC(C)(C)CC4=O)cc(N3CCC(O)CC3)c2c(=O)[nH]1` has an IC50 of 6.07 µM (cell growth or viability, MTS).
`O=Cc1ccc2c(c1C#Cc1ccc(O)cc1)C(c1ccc(O)cc1)(c1ccc(O)cc1)c1cc(O)ccc1-2` has an IC50 of over 50 µM (cell growth or viability, MTT; 48 h).
`C=CC(=O)N1CCC(Cc2ccc(C(=O)N3CCN(c4nc(-c5cnc(N)nc5C(F)F)nc(N5CCOCC5)n4)CC3)cc2)CC1` has an IC50 of 0.0537 µM (Akt phosphorylation, inhibitor, in-cell western, item: Akt pSer473).
`CNS(=O)(=O)Nc1nccc(Cc2c(C)c3ccc(Oc4ncccc4F)cc3oc2=O)c1F` gave an IC50 of 0.576 µM (cell viability; 7 days).
The IC50 of `CCCc1cc2cc(-n3nc(CC(C)C)c4c3CC(C)(C)CC4=O)cc(N3CCC(O)CC3)c2c(=O)[nH]1` is reported as 9.91 µM (cell growth or viability, MTS).
With `CCNC(NN=Cc1ccc([N+](=O)[O-])o1)=[S+][Au-][Cl]` the IC50 was 19.2 µM (cell growth or viability, resazurin).
For `CCCc1cc2cc(-n3nc(C)c4c3CC(C)(C)C(C)C4=O)cc(N3CCC(O)CC3)c2c(=O)[nH]1` (racemic), the IC50 was 21.5 µM (cell growth or viability, MTS).
`NC(NN=Cc1ccc([N+](=O)[O-])o1)=[S+][Au-][Cl]` gave an IC50 of 19.1 µM (cell growth or viability, resazurin).
The IC50 of `CCCc1cc2cc(-n3nc(C(F)F)c4c3CC(C)(C)CC4=O)cc(N3CCC(O)CC3)c2c(=O)[nH]1` is reported as 2.54 µM (cell growth or viability, MTS).
`O=Cc1ccc(-c2ccc(O)cc2)c(C(=C2C=CC(=O)C=C2)c2ccc(O)cc2)c1C#Cc1ccc(O)cc1` gave an IC50 of 9.17 µM (cell growth or viability, MTT; 48 h).
For `CCCc1cc2cc(-n3nc(C4CC4(F)F)c4c3CC(C)(C)CC4=O)cc(N3CCC(O)CC3)c2c(=O)[nH]1` (racemic), the IC50 was 4.51 µM (cell growth or viability, MTS).
The IC50 of `Oc1ccc(C#Cc2c(O)ccc3c2C(c2ccc(O)cc2)(c2ccc(O)cc2)c2cc(O)ccc2-3)cc1` is reported as 15.5 µM (cell growth or viability, MTT; 48 h).

A few entries again:
For `CCCc1cc2cc(-n3nc(C4CC4(F)F)c4c3CC(C)(C)CC4=O)cc(N3CCC(O)CC3)c2c(=O)[nH]1` (racemic), the IC50 was 4.51 µM (cell growth or viability, MTS).
